{"data": "Experimental data pooled from the literature", "note": "Every numbered part comes from another study and shows a few of its results, in no order. “And” joins repeats or separate records; there may be more than shown.", "UniProt P51956, sequence (whole entry, looked up)": "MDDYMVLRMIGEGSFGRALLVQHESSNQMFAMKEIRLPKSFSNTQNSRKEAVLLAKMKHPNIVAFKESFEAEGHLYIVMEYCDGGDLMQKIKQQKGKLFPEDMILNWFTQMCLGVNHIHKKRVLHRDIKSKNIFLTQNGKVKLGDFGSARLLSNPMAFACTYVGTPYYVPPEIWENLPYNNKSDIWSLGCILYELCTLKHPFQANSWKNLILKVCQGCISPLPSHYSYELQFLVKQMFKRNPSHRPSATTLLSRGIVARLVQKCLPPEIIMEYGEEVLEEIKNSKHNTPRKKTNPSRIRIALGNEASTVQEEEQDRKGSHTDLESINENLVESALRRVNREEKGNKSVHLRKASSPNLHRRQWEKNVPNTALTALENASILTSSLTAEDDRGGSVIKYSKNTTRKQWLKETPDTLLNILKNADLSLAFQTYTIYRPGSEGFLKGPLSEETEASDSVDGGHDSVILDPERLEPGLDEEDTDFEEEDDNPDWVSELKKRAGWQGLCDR", "UniProt P50750, sequence (whole entry, looked up)": "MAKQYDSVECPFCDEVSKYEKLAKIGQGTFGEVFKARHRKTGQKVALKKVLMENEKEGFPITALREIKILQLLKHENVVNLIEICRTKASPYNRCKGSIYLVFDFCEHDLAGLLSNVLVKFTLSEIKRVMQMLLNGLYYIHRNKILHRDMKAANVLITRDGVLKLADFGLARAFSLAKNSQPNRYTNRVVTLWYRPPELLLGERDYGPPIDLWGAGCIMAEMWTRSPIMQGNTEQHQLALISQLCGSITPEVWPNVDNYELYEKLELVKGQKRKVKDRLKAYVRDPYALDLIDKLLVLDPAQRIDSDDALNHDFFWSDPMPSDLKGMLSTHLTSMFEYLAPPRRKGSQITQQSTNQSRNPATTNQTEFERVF", "UniProt Q15759, sequence (whole entry, looked up)": "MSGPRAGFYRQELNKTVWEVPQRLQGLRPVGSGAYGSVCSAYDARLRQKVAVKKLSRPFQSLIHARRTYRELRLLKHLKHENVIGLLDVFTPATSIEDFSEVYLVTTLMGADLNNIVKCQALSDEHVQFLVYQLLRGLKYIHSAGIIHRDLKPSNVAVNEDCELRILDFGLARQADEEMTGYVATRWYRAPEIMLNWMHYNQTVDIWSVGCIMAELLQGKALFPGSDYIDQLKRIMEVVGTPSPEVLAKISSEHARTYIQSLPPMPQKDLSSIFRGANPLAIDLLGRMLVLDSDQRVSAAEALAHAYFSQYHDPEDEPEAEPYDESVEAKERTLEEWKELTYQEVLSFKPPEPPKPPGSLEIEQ", "UniProt P32298, sequence (whole entry, looked up)": "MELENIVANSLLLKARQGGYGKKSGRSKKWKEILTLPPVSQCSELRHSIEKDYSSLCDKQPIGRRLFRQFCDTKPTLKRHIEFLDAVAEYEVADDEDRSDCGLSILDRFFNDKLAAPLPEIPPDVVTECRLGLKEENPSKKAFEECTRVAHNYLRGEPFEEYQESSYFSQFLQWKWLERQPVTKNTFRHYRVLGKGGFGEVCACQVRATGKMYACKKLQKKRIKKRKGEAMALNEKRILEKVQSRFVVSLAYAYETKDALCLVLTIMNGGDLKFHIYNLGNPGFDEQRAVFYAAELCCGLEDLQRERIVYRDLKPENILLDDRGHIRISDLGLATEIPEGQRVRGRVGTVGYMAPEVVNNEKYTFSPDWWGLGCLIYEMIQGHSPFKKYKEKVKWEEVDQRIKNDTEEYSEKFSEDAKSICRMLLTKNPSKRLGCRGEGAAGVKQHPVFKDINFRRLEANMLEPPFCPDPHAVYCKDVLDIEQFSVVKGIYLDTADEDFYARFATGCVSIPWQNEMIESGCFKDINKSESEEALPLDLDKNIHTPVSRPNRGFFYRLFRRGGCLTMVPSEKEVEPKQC", "UniProt Q13237, sequence (whole entry, looked up)": "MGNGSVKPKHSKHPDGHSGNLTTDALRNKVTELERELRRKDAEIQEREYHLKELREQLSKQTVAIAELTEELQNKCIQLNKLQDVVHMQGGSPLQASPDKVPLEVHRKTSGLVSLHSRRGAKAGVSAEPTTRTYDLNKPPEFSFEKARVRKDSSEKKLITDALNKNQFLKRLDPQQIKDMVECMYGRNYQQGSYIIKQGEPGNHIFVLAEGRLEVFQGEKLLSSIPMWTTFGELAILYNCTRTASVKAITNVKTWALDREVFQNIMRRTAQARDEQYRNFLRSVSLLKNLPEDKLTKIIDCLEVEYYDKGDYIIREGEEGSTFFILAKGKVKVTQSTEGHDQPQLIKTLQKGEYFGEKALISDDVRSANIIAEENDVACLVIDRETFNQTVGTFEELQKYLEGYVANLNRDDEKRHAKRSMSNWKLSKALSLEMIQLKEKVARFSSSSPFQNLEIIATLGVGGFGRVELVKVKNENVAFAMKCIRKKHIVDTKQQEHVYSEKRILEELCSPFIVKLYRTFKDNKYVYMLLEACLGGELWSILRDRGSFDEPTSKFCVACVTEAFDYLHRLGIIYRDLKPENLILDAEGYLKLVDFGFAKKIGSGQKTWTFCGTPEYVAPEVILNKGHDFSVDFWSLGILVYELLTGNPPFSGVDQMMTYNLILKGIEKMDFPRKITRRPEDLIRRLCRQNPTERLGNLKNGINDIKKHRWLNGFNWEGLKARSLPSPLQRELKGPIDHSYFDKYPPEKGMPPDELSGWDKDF", "UniProt P28335, sequence (whole entry, looked up)": "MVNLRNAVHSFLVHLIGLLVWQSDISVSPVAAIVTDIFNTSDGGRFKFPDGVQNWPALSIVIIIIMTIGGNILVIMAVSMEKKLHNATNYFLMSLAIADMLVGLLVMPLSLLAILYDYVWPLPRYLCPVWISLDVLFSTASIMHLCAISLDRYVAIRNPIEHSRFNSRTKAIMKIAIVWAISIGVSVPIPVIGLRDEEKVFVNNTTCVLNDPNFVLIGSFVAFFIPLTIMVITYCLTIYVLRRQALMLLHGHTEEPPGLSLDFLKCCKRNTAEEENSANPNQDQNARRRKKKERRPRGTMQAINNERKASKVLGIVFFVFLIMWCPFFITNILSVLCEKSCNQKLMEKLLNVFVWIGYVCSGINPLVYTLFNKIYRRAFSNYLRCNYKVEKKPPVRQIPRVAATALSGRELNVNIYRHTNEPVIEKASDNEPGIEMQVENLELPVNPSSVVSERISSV", "UniProt P28223, sequence (whole entry, looked up)": "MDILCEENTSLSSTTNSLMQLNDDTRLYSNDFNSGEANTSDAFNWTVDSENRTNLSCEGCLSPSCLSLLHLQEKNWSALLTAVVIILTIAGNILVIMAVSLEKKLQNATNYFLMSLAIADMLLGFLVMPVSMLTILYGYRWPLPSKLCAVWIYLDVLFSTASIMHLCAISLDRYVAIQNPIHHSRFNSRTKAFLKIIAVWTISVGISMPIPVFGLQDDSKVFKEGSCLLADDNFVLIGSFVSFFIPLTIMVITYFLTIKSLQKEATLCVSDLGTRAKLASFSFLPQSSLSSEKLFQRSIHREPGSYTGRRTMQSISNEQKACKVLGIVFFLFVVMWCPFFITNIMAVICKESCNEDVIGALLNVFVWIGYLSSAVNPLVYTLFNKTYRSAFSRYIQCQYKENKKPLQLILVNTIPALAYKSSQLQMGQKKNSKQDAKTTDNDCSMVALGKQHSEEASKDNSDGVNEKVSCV", "UniProt P41143, sequence (whole entry, looked up)": "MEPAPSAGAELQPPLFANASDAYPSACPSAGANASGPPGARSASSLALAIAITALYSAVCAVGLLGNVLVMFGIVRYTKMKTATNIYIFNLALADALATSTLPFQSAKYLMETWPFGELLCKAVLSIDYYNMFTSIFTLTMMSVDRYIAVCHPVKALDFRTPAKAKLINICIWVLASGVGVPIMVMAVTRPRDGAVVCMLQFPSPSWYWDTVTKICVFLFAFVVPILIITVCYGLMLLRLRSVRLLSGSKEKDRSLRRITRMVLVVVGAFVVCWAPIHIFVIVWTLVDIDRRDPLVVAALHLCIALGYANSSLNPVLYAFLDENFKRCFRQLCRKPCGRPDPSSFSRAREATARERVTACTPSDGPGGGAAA", "UniProt Q8N568, sequence (whole entry, looked up)": "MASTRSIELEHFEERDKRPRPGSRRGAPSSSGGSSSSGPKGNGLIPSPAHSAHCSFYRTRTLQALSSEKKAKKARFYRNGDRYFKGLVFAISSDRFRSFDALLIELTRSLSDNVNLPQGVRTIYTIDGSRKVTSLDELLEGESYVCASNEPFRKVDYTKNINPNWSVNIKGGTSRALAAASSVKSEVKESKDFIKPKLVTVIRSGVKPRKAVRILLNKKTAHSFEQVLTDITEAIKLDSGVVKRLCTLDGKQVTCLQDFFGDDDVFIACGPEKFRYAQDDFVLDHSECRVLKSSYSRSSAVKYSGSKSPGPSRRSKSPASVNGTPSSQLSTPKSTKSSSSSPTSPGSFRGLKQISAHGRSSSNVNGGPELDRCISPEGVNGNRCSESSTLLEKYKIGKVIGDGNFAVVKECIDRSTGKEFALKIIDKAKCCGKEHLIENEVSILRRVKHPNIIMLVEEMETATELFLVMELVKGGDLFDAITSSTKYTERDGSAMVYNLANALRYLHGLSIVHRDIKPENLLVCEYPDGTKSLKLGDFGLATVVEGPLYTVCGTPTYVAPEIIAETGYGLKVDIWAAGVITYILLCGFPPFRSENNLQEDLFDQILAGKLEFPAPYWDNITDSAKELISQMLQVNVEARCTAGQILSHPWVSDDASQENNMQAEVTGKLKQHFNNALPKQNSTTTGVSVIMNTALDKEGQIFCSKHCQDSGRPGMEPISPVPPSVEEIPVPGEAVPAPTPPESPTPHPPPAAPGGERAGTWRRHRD", "UniProt Q6P2M8, sequence (whole entry, looked up)": "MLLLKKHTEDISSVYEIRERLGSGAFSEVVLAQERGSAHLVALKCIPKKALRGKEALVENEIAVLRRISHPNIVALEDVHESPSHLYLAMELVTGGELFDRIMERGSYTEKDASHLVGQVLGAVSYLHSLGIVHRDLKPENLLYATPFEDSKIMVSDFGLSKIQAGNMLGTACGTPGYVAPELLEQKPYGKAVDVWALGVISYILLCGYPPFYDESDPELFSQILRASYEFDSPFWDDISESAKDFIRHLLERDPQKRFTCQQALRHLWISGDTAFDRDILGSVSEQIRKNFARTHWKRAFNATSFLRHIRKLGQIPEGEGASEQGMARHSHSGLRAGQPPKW"}
{"data": "Block 1", "Structure (SMILES)": "COc1ccc2c(c[n+](C)c3c4cc5c(cc4ccc23)OCO5)c1OC", "effect on": "enzyme activity", "mode": "inhibitor", "tested at": "0.5 µM", "reference": "control"}
{"target": "Discoidin domain-containing receptor 2 (DDR2, Homo sapiens, UniProt Q16832)", "remaining activity [%]": 96.1}
{"target": "Serine/threonine-protein kinase DCLK2 (DCLK2, Homo sapiens, UniProt Q8N568)", "remaining activity [%]": 96}
{"target": "Mitogen-activated protein kinase 11 (MAPK11, Homo sapiens, UniProt Q15759)", "remaining activity [%]": 91.6}
{"target": "Tyrosine-protein kinase TXK (TXK, Homo sapiens, UniProt P42681)", "remaining activity [%]": 100}
{"target": "Ribosomal protein S6 kinase alpha-4 (RPS6KA4, Homo sapiens, UniProt O75676)", "remaining activity [%]": 88.3}
{"target": "cGMP-dependent protein kinase 2 (PRKG2, Homo sapiens, UniProt Q13237)", "remaining activity [%]": 68.7}
{"target": "Rho-associated protein kinase 1 (ROCK1, Homo sapiens, UniProt Q13464)", "remaining activity [%]": 99.4}
{"target": "Cyclin-dependent kinase 9, with cyclin K (CDK9, Homo sapiens, UniProt P50750)", "remaining activity [%]": 95.6}
{"target": "Calcium/calmodulin-dependent protein kinase type 1B (PNCK, Homo sapiens, UniProt Q6P2M8)", "remaining activity [%]": 103}
{"target": "Mitogen-activated protein kinase 1 (MAPK1, Homo sapiens, UniProt P28482)", "remaining activity [%]": 101}
{"target": "Serine/threonine-protein kinase Nek3 (NEK3, Homo sapiens, UniProt P51956)", "remaining activity [%]": 95.2}
{"target": "Hepatocyte growth factor receptor (MET, Homo sapiens, UniProt P08581)", "remaining activity [%]": 94.7}
{"target": "G protein-coupled receptor kinase 4 (GRK4, Homo sapiens, UniProt P32298)", "remaining activity [%]": 94.8}
{"data": "Block 2", "SMILES": "CCC(=O)N[C@@H]1CC[C@H](C(=O)N(C)c2ccc(-c3nc4ccccc4o3)cc2)C1", "effect on": "binding", "technique": "radioligand binding", "tested at": "10 µM"}
{"target": "5-hydroxytryptamine receptor 2A (HTR2A, Homo sapiens, UniProt P28223)", "inhibition [%]": -9.08}
{"target": "Delta-type opioid receptor (OPRD1, Homo sapiens, UniProt P41143)", "inhibition [%]": -0.0188}
{"target": "Muscarinic acetylcholine receptor M1 (CHRM1, Homo sapiens, UniProt P11229)", "inhibition [%]": -16.6}
{"target": "5-hydroxytryptamine receptor 2C (HTR2C, Homo sapiens, UniProt P28335)", "inhibition [%]": 5.92}
{"data": "Block 3", "cell line": "HaCaT", "tested at": "100 µM", "time": "18 h"}
{"Compound": "Cc1cccc(C)c1N=C1NCCCS1", "viability": "112%"}
{"Compound": "COC1=C[C@@H]2[C@@H]3Cc4ccc(OC)c(O)c4[C@]2(CCN3C)CC1=O", "viability": "107%"}
{"Compound": "CCN(CC)CCOC(=O)C(O)(c1ccccc1)c1ccccc1", "viability": "117%"}
{"data": "Block 4", "cell line": "mouse MPNST tumor cells", "technique": "high-content nuclear imaging", "measured": "cell number", "tested at": "10 µM", "time": "12 h", "setting": "mean of 2 replicates", "reference": "plate mean", "reading": "higher = more cells"}
{"SMILES": "CC[N+]1(C)CCCC(OC(=O)C(O)(c2ccccc2)c2ccccc2)C1 (centres unmarked)", "nuclei count": "0.284 z-score"}
{"SMILES": "CC[C@@H](C(N)=O)N1CCCC1=O", "nuclei count": "0.169 z-score and 0.181 z-score and 1.3 z-score"}
{"SMILES": "C[C@]12C/C(=C/O)C(=O)C[C@@H]1CC[C@@H]1[C@@H]2CC[C@@]2(C)[C@H]1CC[C@]2(C)O", "nuclei count": "1.84 z-score"}
{"SMILES": "COc1ccc2c3c([nH]c2c1)[C@H](CC(C)C)N1C(=O)[C@H](CCC(=O)OC(C)(C)C)NC(=O)[C@@H]1C3", "nuclei count": "6.52 z-score"}
{"SMILES": "COC1(C[S+]([O-])c2ccccc2)CCN(CCc2c[nH]c3ccc(F)cc23)CC1 (centres unmarked)", "nuclei count": "1.02 z-score"}
{"data": "Single results of other studies"}
{"SMILES": "CC(=O)N[C@@H](Cc1c[nH]c2ccccc12)C(=O)N[C@@H](CCC(=O)C=[N+]=[N-])C(=O)OC(C)C", "test system": "C57BL/6 CES1-/- mouse, blood", "setting": "intravenous, 1 mg/kg equivalent", "endpoint": "lymphocyte count", "value": 2.61}
